Assay results gathered from unrelated publications.
“And” joins repeats or separate records; there may be more than shown. ± gives the spread as reported.

SMILES	organism	test	system	conditions	how to read	endpoint	value
CC(=O)N1CCC(C(=O)N2CCN3C(=O)c4cc(-c5ccccc5)ccc4NC(=O)C3C2)CC1 (stereo not shown)	Salmonella typhimurium		TA1537	1581 µg/plate, added: rat liver S9	relative to: vehicle	fold increase in revertants	1.7
[Cl-].[Cl-].[Pt+2].[Ru+2].c1ccc(-c2nccnc2-c2ccccn2)nc1.c1cnc2c(c1)ccc1cccnc12.c1cnc2c(c1)ccc1cccnc12	Danio rerio		embryos	45 µM, 48 h		survival rate	73.3 ± 2.8%
Cc1c(Cl)c(=O)oc2cc(OCCCC[Se]C#N)ccc12	Caenorhabditis elegans		N2 Bristol, NGM with E. coli OP50	1 µM, 24 h		embryonic lethality	1.15%
COCCN(CCOC)N=O	Escherichia coli	mutagenicity, Ames plate incorporation	WP2 uvrA pKM101	2500 µg/plate, 3 d, without S9, methanol		revertant colonies per plate	134 ± 5
O=[N+]([O-])c1ccc(N2CCC(NCCC(O)c3ccc(F)c4ccccc34)CC2)c(C(F)(F)F)c1 (stereo not shown)	Salmonella typhimurium	SOS response, SOS/umu test	TA1535/pSK1002, TGA medium	3.05e-05 mg/mL, 4 h, added: 10% rat liver S9	relative to: untreated	induction factor	1.1
COc1cccc(-c2n[nH]c(SCc3ccccn3)n2)c1OC	Salmonella typhimurium	Ames test, plate incorporation	TA1535	0.13 mg/plate, without S9		revertant colonies per plate	13
O=[N+]([O-])c1ccc(N2CCN(CCC(O)c3ccc(F)cc3)CC2)c(C(F)(F)F)c1 (stereo not shown)	Salmonella typhimurium	SOS/umu test	TA1535/pSK1002, TGA medium	0.000488 mg/mL, 4 h, added: 10% rat liver S9		survival	128%
CN(N=O)c1ccc(F)cc1	Escherichia coli	mutagenicity, Ames plate incorporation	WP2 uvrA pKM101	5000 µg/plate, 3 d, without S9, methanol		revertant colonies per plate	37.3
CC(C)C[C@H](NC(=O)[C@H](Cc1c[nH]cn1)NC(=O)[C@H](Cc1c[nH]cn1)NC(=O)[C@H](Cc1ccc(O)cc1)NC(=O)[C@@H](N)CS)C(=O)N[C@H](C(=O)N[C@@H](CC(C)C)C(=O)N[C@H](C(=O)N[C@H](C(=O)NCC(=O)NCC(=O)N[C@@H](CO)C(=O)O)C(C)C)[C@@H](C)O)C(C)C	Epstein-Barr virus		B-NDG humanized mouse, EBV-infected	20 mg/kg, day 28		body weight	21.2 g and 21.5 g and 23.4 g
CNC(=O)c1c(N(C)N=O)ncn1C	Escherichia coli	mutagenicity, Ames plate incorporation	WP2 uvrA pKM101	2500 µg/plate, without S9, methanol		revertant colonies per plate	114 ± 9
OC(CCN1CC=C(c2ccc(F)cc2)CC1)c1ccc(F)c2ccccc12 (stereo not shown)	Salmonella typhimurium	SOS/umu test	TA1535/pSK1002	0.004 mg/mL, 4 h, without S9, lower range		survival	128%
CN(CC(C)(C)C)N=O	Escherichia coli	plate incorporation	WP2uvrA pKM101, methanol	150 µg/plate, without S9		revertant colonies per plate	134 and 156
Cc1cc(C(=O)NC(C)(C)COc2cccc3c2C(N)=NS(=O)(=O)N3)cc(C)n1	Escherichia coli	Ames test, initial	WP2 uvrA	1500 µg/plate	relative to: solvent control	revertant ratio	1.2

For quick reference, copied from above:
SMILES	organism	test	system	conditions	how to read	endpoint	value
CN(CC(C)(C)C)N=O	Escherichia coli	plate incorporation	WP2uvrA pKM101, methanol	150 µg/plate, without S9		revertant colonies per plate	134 and 156
